Experimental data collected from several papers.
Each line is one published result; not all experiments were run side by side. ± marks the error that the study gave.

Cc1ccncc1.[Cl-].[Cl-].[Ru+2].c1cc(-c2ccc3cccnc3n2)nc(-c2ccc3cccnc3n2)c1.c1ccc2cc3nc4c5cccnc5c5ncccc5c4nc3cc2c1  EC50 (SK-MEL-28; photocytotoxicity; light 633 nm, oxygen 1%): 67.1 ± 2.2 µM
COc1cccc(C2CC(c3ccccc3Cl)Nc3nc(N)nn32)c1 (stereo not shown)  EC50 (MEF TRE-FLAG-LMNB1; protein level reduction, measured: LMNB1): 17.1 µM
COC1CCN(C(=O)/C=C/c2nn(Cc3cccc(C(F)(F)F)c3)c3nc(N4CCCCC4)ncc23)CC1  EC50 (OE33; cell growth or viability, resazurin; 5 days): > 30 µM
C=C(NC(=O)c1csc(-c2cccnc2)n1)C(=O)NC(=C)C(=O)OC  EC50 (Calu-1; cell growth or viability): 6.1 µM
[Cl-].[Cl-].[Ru+2].c1ccc(-c2ccccn2)nc1.c1ccc(-c2ccccn2)nc1.c1ccc2cc3nc4c5cccnc5c5ncccc5c4nc3cc2c1  EC50 (SK-MEL-28; cell viability, resazurin; dark, 1% O2 hypoxia): 115 ± 3 µM
O=c1c(-c2cnn(-c3ccccc3)c2)c(C(F)(F)F)oc2c(O)c(O)ccc12  EC50 (NCI-H1299; apoptosis, flow cytometry): ~81 µM
CCCCCCCCCCCCNC(=S)NCCCC[C@H](NC(=O)OCc1ccccc1)C(=O)N[C@@H](Cc1c[nH]c2ccccc12)C(=O)NC(C)C  EC50 (HEK-293T; cell growth or viability, MTT; 72 h): 2.36 to 3.17 µM
CCCNc1ncc2c(/C=C/C(=O)N3CCC(OC)CC3)nn(Cc3cccc(C(F)(F)F)c3)c2n1  EC50 (FLO-1; cell growth or viability, resazurin; 5 days): 3.36 µM
CC(C)(C)c1cc(-c2ccc3cccnc3n2)nc(-c2ccc3cccnc3n2)c1.COc1ccncc1.[Cl-].[Cl-].[Ru+2].c1ccc2cc3nc4c5cccnc5c5ncccc5c4nc3cc2c1  EC50 (SK-MEL-28; cell viability; light 633 nm, 100 J/cm2): 0.396 ± 0.017 µM
CCNc1ncc2c(/C=C/C(=O)N3CCC(OC)CC3)nn(Cc3cccc(C(F)(F)F)c3)c2n1  EC50 (OE33; cell growth or viability, resazurin; 5 days): 0.93 µM
COC(=O)[C@H](C)NC(=O)[C@H](C)NC(=O)c1csc(-c2cccnc2)n1  EC50 (Calu-1; cell growth or viability): > 30 µM
CCCCNc1ncc2c(/C=C/C(=O)N3CCC(OC)CC3)nn(Cc3cccc(C(F)(F)F)c3)c2n1  EC50 (OE33; cell growth or viability, resazurin; 5 days): > 30 µM
CSCCC(C(=O)Nc1ccc2c(c1)OCCO2)N1Cc2ccccc2C1=O (stereo not shown)  EC50 (MEF TRE-FLAG-LMNB1; protein level reduction, measured: LMNB1; resynthesized batch): 7.2 µM

Some of these lines once more:
O=c1c(-c2cnn(-c3ccccc3)c2)c(C(F)(F)F)oc2c(O)c(O)ccc12  EC50 (NCI-H1299; apoptosis, flow cytometry): ~81 µM
CCCCCCCCCCCCNC(=S)NCCCC[C@H](NC(=O)OCc1ccccc1)C(=O)N[C@@H](Cc1c[nH]c2ccccc12)C(=O)NC(C)C  EC50 (HEK-293T; cell growth or viability, MTT; 72 h): 2.36 to 3.17 µM
